Measured values gathered from unrelated publications.
Each numbered part is a random draw from the data of one study; scales do not carry over between parts.
Sequence of UniProt P10721 (whole entry, unmodified, looked up): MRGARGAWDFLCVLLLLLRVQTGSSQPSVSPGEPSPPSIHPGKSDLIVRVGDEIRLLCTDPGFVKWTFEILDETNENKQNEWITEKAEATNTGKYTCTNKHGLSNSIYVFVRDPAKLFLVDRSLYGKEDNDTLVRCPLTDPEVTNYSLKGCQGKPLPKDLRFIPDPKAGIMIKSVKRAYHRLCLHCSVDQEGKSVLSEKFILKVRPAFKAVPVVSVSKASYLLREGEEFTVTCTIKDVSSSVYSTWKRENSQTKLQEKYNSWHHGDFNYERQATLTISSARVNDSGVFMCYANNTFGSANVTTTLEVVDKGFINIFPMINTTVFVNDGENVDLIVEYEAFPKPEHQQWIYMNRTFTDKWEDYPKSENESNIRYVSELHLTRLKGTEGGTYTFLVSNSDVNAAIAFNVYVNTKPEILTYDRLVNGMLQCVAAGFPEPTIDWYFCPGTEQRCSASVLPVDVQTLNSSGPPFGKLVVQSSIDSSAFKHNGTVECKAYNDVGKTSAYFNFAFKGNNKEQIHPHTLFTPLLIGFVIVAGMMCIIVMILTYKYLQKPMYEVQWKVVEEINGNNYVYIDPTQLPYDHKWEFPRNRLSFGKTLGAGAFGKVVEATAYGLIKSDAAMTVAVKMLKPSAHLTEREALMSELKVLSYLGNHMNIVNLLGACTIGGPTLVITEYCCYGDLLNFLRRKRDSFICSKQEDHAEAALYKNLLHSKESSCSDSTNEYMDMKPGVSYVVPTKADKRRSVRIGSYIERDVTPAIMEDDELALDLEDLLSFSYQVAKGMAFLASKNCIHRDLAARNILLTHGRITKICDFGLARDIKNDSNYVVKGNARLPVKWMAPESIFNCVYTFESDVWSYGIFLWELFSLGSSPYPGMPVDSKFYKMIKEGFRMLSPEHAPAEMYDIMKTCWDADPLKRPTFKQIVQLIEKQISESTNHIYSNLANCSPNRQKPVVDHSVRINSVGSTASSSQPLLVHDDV
Sequence of UniProt Q9NWZ3 (whole entry, looked up): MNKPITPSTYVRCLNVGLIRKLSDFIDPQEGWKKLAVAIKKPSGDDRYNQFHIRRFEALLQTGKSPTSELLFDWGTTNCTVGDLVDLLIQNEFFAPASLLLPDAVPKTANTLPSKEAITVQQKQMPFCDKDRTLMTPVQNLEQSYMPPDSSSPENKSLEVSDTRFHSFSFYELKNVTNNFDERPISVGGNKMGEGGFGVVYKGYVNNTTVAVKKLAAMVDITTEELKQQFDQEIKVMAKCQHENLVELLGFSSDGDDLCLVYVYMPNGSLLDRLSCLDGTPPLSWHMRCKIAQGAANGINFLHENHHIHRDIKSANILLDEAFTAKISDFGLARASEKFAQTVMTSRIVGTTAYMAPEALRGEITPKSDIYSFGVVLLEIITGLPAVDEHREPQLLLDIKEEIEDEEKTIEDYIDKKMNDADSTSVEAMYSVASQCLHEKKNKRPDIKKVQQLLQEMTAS
Sequence of UniProt P52333 (whole entry, looked up): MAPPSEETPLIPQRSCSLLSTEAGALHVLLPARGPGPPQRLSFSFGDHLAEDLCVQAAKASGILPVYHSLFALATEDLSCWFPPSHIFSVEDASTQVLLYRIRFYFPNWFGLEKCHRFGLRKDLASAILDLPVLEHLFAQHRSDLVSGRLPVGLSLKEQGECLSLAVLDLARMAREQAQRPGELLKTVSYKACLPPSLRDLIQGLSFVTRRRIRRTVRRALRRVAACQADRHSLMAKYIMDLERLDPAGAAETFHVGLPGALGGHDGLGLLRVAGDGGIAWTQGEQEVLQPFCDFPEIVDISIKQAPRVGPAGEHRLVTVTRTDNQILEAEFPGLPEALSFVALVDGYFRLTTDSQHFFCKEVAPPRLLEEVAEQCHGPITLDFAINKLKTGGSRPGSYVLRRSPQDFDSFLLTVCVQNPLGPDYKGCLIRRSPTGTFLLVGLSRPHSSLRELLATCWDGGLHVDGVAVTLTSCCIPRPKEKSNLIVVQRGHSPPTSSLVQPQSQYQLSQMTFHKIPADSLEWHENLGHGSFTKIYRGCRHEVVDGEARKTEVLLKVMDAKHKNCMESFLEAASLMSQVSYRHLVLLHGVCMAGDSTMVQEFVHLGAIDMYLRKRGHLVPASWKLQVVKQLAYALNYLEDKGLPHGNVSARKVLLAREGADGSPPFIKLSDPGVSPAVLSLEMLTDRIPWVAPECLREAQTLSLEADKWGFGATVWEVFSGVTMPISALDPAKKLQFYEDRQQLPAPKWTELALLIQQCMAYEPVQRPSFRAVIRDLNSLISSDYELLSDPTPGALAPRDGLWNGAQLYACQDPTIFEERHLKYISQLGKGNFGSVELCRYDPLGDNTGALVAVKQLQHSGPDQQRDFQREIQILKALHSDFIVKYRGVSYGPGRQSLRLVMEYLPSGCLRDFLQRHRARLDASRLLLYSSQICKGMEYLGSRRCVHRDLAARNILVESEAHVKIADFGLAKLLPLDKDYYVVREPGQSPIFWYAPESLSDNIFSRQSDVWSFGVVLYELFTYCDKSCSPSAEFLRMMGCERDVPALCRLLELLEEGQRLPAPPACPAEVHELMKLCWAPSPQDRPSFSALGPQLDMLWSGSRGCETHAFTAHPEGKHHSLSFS

Sample 1
SMILES: CO[C@H]1C[C@@H]2CC[C@@H](C)[C@@](O)(O2)C(=O)C(=O)N2CCCC[C@H]2C(=O)O[C@H]([C@H](C)C[C@@H]2CC[C@@H](O)[C@H](OC)C2)CC(=O)[C@H](C)/C=C(\C)[C@@H](O)[C@@H](OC)C(=O)[C@H](C)C[C@H](C)/C=C/C=C/C=C/1C
Effect on: enzyme activity
Mode: inhibitor
Concentration: 0.5 µM
Baseline: control
target | remaining activity [%]
KIT (Homo sapiens, UniProt P10721) | 95.7
PLK2 (Homo sapiens, UniProt Q9NYY3) | 105
CSNK2A1 (Homo sapiens, UniProt P68400) | 94.7
IRAK4 (Homo sapiens, UniProt Q9NWZ3) | 123
LRRK2 (Homo sapiens, UniProt Q5S007) | 98.7
MAP3K10 (Homo sapiens, UniProt Q02779) | 109
BTK (Homo sapiens, UniProt Q06187) | 101

Sample 2
Organism: Sarcocystis neurona
Effect on: parasite growth
Concentration: 10 µM
Setting: secondary screen
Compound | inhibition
Cc1cn([C@H]2C[C@H](N=[N+]=[N-])[C@@H](CO)O2)c(=O)[nH]c1=O | -27.2%
CC(C)(C)C(O)/C=C/c1ccc2c(c1)OCO2 (centres unmarked) | -41.2%
CC(C(=O)O)c1ccc(-c2ccccc2)c(F)c1 (centres unmarked) | -10.7%
C[C@]12CCC(=O)C=C1CC[C@@H]1[C@@H]2C(=O)C[C@@]2(C)[C@H]1CC[C@]2(O)C(=O)CO | 3.6%
CC(=O)OCC(=O)[C@@]1(O)CC[C@H]2[C@@H]3CCC4=CC(=O)CC[C@]4(C)[C@H]3[C@@H](O)C[C@@]21C | 13.7%
CCn1cc(C(=O)O)c(=O)c2ccc(C)nc21 | -28.3%

Sample 3
Target: DNA polymerase theta, helicase domain (POLQ, Homo sapiens, UniProt O75417)
Sequence of UniProt O75417 (whole entry, looked up): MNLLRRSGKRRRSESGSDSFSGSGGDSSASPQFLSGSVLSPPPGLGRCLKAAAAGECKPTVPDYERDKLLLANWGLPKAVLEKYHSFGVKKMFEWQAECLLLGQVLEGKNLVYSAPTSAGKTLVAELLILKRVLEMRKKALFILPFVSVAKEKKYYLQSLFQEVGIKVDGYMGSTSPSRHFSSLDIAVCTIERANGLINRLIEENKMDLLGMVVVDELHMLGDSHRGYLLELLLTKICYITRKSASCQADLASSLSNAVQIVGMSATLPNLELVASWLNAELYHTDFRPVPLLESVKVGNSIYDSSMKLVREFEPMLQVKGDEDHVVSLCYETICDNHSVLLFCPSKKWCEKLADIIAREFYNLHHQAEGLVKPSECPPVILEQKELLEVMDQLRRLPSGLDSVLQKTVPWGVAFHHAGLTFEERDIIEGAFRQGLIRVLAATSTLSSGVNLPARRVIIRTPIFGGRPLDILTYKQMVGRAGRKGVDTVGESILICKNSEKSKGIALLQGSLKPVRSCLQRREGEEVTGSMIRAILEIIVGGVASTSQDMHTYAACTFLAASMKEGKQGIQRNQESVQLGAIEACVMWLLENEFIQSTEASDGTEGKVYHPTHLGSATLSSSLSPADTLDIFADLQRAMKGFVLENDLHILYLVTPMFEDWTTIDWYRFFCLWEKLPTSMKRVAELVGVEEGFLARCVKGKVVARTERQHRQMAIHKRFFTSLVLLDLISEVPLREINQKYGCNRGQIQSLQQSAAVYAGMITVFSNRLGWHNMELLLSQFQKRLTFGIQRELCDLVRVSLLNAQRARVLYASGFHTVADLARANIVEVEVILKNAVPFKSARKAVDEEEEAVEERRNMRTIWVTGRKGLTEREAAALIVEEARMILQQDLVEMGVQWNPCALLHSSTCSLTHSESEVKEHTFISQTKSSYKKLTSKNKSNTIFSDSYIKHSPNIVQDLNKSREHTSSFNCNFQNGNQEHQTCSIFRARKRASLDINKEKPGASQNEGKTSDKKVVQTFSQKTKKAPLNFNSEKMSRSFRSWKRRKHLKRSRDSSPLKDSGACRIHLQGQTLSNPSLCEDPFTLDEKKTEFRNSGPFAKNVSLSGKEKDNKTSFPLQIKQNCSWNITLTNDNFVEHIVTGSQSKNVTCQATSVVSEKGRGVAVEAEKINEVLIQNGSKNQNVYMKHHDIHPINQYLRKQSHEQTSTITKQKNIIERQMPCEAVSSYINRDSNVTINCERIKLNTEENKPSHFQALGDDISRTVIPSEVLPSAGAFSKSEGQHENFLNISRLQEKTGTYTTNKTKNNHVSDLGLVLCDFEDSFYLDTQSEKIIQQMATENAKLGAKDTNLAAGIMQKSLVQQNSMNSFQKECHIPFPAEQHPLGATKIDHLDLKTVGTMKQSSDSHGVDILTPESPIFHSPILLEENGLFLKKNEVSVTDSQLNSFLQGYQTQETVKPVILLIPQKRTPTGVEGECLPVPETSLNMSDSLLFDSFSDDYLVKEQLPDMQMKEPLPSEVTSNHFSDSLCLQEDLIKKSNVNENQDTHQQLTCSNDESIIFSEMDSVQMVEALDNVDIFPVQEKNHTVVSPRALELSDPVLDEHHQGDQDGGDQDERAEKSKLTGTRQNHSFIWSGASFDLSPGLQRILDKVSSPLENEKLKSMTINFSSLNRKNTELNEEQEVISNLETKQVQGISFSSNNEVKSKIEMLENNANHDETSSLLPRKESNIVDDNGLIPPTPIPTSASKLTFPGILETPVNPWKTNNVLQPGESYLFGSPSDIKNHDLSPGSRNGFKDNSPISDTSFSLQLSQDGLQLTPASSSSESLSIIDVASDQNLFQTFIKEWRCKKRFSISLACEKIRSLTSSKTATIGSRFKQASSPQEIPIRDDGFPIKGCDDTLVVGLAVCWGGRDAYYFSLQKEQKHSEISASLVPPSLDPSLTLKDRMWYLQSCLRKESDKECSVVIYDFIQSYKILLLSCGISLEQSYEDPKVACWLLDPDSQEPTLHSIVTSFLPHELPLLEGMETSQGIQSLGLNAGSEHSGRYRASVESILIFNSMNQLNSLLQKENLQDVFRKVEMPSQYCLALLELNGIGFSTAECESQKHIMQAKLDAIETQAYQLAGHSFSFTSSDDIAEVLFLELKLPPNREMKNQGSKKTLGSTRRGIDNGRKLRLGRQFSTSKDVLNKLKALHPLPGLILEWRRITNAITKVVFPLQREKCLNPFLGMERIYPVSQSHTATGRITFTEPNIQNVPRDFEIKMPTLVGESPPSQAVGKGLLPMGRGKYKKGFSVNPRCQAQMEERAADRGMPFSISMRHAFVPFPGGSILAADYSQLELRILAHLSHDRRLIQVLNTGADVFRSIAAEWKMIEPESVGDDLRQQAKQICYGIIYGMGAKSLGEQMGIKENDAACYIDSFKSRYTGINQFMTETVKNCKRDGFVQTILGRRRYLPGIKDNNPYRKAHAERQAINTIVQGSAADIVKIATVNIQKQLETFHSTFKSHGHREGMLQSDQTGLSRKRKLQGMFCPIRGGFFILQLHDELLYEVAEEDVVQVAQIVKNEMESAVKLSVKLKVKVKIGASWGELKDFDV
Mode: inhibitor
Concentration: concentration not given
Setting: average
With: without ssDNA
SMILES | remaining activity [%]
CSc1ccc(/C=C/c2nc3ccccc3n2S(=O)(=O)c2ccc(Br)cc2)cc1 | 60.9
O=C(Nc1noc2ccccc12)c1ccc(F)cc1 | 50.7
CC(=O)Oc1ccccc1C(=O)Nc1ncc([N+](=O)[O-])s1 | 49
O=C(Nc1ccccc1C(=O)O)c1cccc(S(=O)(=O)N2CCCC2)c1 | 55.4

Sample 4
Compound: Cc1ccc(NC(=O)c2ccnc(C(F)(F)F)c2)cc1-c1cc(OCCO)nc(N2CCOCC2)c1
Concentration: 1 µM
target | effect on | method | remaining binding
Tyrosine-protein kinase JAK3, JH1 (JAK3, Homo sapiens, UniProt P52333) | cell-free assay | competition with immobilised ligand | 72%
PRKCD (Homo sapiens, UniProt Q05655) | binding | – | 100%
MAP3K12 (Homo sapiens, UniProt Q12852) | binding | – | 100%
CAMK1G (Homo sapiens, UniProt Q96NX5) | binding | – | 100%
Ribosomal protein S6 kinase alpha-6, N-terminal kinase domain (RPS6KA6, Homo sapiens, UniProt Q9UK32) | binding | competition with immobilised ligand | 81%
KIT (Homo sapiens, UniProt P10721, A829P) | binding | – | 97%

Repeated from above (sample 2):
Compound | inhibition
CC(C(=O)O)c1ccc(-c2ccccc2)c(F)c1 (centres unmarked) | -10.7%
CC(=O)OCC(=O)[C@@]1(O)CC[C@H]2[C@@H]3CCC4=CC(=O)CC[C@]4(C)[C@H]3[C@@H](O)C[C@@]21C | 13.7%
C[C@]12CCC(=O)C=C1CC[C@@H]1[C@@H]2C(=O)C[C@@]2(C)[C@H]1CC[C@]2(O)C(=O)CO | 3.6%
